Assay results pooled from the literature.
Protocols differ between the studies behind these lines. Several values in a cell are separate wells, animals, samples, runs or records. ± gives the spread as reported.

| SMILES | test | test system | setting | how to read | endpoint | value |
| --- | --- | --- | --- | --- | --- | --- |
| CO[C@@H](C(=O)N1Cc2n[nH]c(NC(=O)c3ccc(N4CCN(C)CC4)cc3)c2C1)c1ccccc1 |  | patients with advanced solid tumours | dose not given, without G-CSF |  | discontinuation due to disease progression | 73% |
| CN(C)C(=O)Oc1cccc([N+](C)(C)C)c1 | neuromuscular block reversal | rat | dose not given, 4 (unit not given), with: cisatracurium | reference: T1 twitch | train-of-four ratio | 8.16 |
| CCc1ccc(CCOc2ccc(CC3SC(=O)NC3=O)cc2)nc1 (centres unmarked) | deuterium-hydrogen exchange | aqueous phosphate buffer | pH 7.4, 37 °C |  | exchange rate constant | -0.155 h⁻¹ |
| Cc1cc(C)c(CNC(=O)c2cc(Cl)c3c(c2C)O[C@@](C)([C@H]2CC[C@H](N(C)C)CC2)O3)c(=O)[nH]1 | IWG 2007 criteria | human, relapsed/refractory peripheral T-cell lymphoma | dose not given |  | best overall response CR | 31% |
| CN[C@@H]1COc2c(S(=O)(=O)NC(=O)Nc3c4c(cc5c3CCC5)CCC4)cnn2C1 | measured: IL-1β | human participants, whole blood ex vivo | 900 mg twice daily, multiple doses, 152 h, with: LPS/ATP | reference: baseline | inhibition | 99.8% |
| OC(CCN1CCCCC1)(c1ccccc1)C1CC2C=CC1C2 (centres unmarked) | resting-state EEG | healthy elderly humans | oral, 4 mg, eyes open, LS mean |  | EEG Alpha1-power Pz-O2 | 4.3 µV² |
| CNCc1cc(-c2ccccc2F)n(S(=O)(=O)c2cccnc2)c1 | esophageal lesions | rat reflux esophagitis model | oral, 2 mg/kg |  | inhibition | 96% |
| COc1ccc(F)cc1C(=O)NCc1ccc(-c2nn([C@@H](C)C(F)(F)F)c(N)c2C(N)=O)cc1 |  | relapsed/refractory CLL patients | dose not given, patients with longitudinal samples |  | best overall response NE | 0% |
| Cc1cc(C)c(CNC(=O)c2cc(Cl)c3c(c2C)O[C@@](C)([C@H]2CC[C@H](N(C)C)CC2)O3)c(=O)[nH]1 |  | relapsed/refractory NHL patients, total incl. ATLL and CTCL | oral, dose not given |  | best overall response CR | 25% |
| NC(=O)c1cnc2[nH]ccc2c1N[C@@H]1[C@@H]2CC3C[C@H]1C[C@@](O)(C3)C2 | flow cytometry, measured: CD4+ memory T cells | Japanese healthy subjects, peripheral blood | oral, 30 mg twice daily, day 7 |  | change from baseline | 0.38% |
| CNC(=O)c1ccc(N2C(=S)N(c3ccc(C#N)c(C(F)(F)F)c3)C(=O)C2(C)C)cc1F | western blot | NRG mouse male, CWR22Rv1 xenograft, tumour | dose not given, 16 days |  | full-length AR protein level | no effect |
| C[C@H]1C[C@H]2CSC(N)=N[C@@]2(c2nc(NC(=O)c3ccc(OC(F)F)cn3)cs2)CO1 | measured: Aβ1-40 | healthy adults, plasma | 15 mg once daily, day 2 | reference: placebo | percent change from baseline | -58% |
| CCCCc1nc2c(N)nc3ccccc3c2n1Cc1ccc(N)cc1 | IL-6 release, ELISA | PBMC, human | 24 h |  | concentration | ~10 µM |
| CC[C@H](CC[C@@H](C)[C@H]1CC[C@H]2[C@@H]3CC=C4C[C@@H](O[C@@H]5O[C@H](CO)[C@@H](O)[C@H](O)[C@H]5O)CC[C@]4(C)[C@H]3CC[C@]12C)C(C)C | Oil Red O | 3T3-L1, mouse | 5 µM, day 8 | reference: vehicle | lipid accumulation | 47.6 ± 3.09% |
| N#Cc1ccc2c(c1)[C@H]1CCCN(C(=O)c3ccc4[nH]cnc4c3)[C@H]1C2 |  | human, urine | 160 mg, 24 h, day 1 over day -1 | reference: placebo and baseline | total urinary corticosteroids | 64.3 % change |
| N#Cc1ccn2c(-c3ccncc3)c(-c3ccc(F)cc3)nc2c1 | kinase binding, competitor, MIB/MS competition, measured: GIN4 | Candida albicans cell lysate | 1 µM | reference: DMSO | log2 fold change | 0.0196 |
| COc1cc(Nc2ncc3c(n2)-c2ccc(Cl)cc2C(c2c(F)cccc2OC)=NC3)ccc1C(=O)O |  | mouse, NB-EBc1 neuroblastoma xenograft | oral, 2.6 mg/kg, day 7 | reference: vehicle | relative tumour volume T/C | 2.76 |
| CC(C)(C)c1sc2ncnc(Oc3c(F)cccc3OC(F)(F)F)c2c1-c1ccc(Cl)cc1 | heat hyperalgesia | humanized MrgprX1 mice, CCI | oral, 4.5 mg/kg |  | antihyperalgesia | ~28% |
| N#Cc1ccc2c(-c3ccncc3)c(-c3ccc(F)cc3)nn2c1 | kinase binding, competitor, MIB/MS competition, measured: SSK2 | Candida albicans cell lysate | 10 µM | reference: DMSO | log2 fold change | 0.382 |
| CN[C@@H](C)C(=O)N[C@H]1CN(S(=O)(=O)c2cccc(S(=O)(=O)N3CC[C@H]4CC[C@@H](C(=O)NC(c5ccccc5)c5ccccc5)N4C(=O)[C@@H](NC(=O)[C@H](C)NC)C3)c2)CC[C@H]2CC[C@@H](C(=O)NC(c3ccccc3)c3ccccc3)N2C1=O | RECIST 1.1 | advanced pancreatic cancer patients | dose not given, no prior therapy, with: AG |  | best response stable disease | 66.7% |
| O=C1Nc2cc3[nH]nc(-c4ccncc4)c3cc2CN1Cc1ccccc1 | RECIST v1.1 | human, relapsed or refractory advanced solid tumours | intravenous, 3.6 mg/kg, pooled schedules |  | stable disease, best response | 0% |
| CSCCNc1nc(SCCC(F)(F)F)nc2c1ncn2[C@@H]1O[C@H](COP(=O)(O)OP(=O)(O)C(Cl)(Cl)P(=O)(O)O)[C@@H](O)[C@H]1O | light transmittance aggregometry | human patients, platelet-rich plasma | dose not given, 2 h, with: ADP 5 µM | reference: patients | patients with IPA above 80% | 7.5% |
| O=C(O)CNC(=O)Cc1ccccc1 |  | ventricular cardiomyocytes, C57BL/6 mouse | dose not given, 0.032 s |  | sarcomere length | 1.72 µm |
| CCOc1c([C@H](C)n2nc(C)c3c(N)ncnc32)cc(Cl)c(F)c1[C@@H]1CNC(=O)C1 | Olink proximity extension, measured: GT | human FL or MZL patients, plasma | dose not given, week 8 day 1, once-daily dosing | reference: baseline | percent change in level | -43% |

| SMILES | test | test system | setting | how to read | endpoint | value |
| --- | --- | --- | --- | --- | --- | --- |
| COc1cc(O)c(CC=C(C)C)c(O)c1C(=O)/C=C/c1ccc(O)cc1 |  | male Tac:SW conventional mice, high-fat diet | in diet, 60 mg/kg/day, 10 weeks |  | fasting plasma insulin | 0.88 ng/mL |
| CC(C)[C@H](NC(=O)[C@H](Cc1ccc(O)cc1)NC(=O)[C@H](Cc1ccc(O)cc1)NC(=O)[C@@H]1CCCN1C(=O)[C@H](CCC(=O)O)NC(=O)[C@H](CCC(=O)O)NC(=O)[C@H](Cc1c[nH]c2ccccc12)NC(=O)[C@@H]1CCCN1C(=O)[C@@H](NC(=O)[C@H](CCC(N)=O)NC(=O)c1ccc2c(c1)C(=O)OC21c2ccc(O)cc2Oc2cc(O)ccc21)C(C)C)C(=O)N[C@H](C(=O)N[C@@H](CCCCN)C(=O)N[C@@H](CCCCN)C(=O)N[C@@H](CO)C(=O)N[C@@H](CO)C(=O)NCC(=O)NCC(N)=O)C(C)C | nerve trajectory | human head and neck surgery, nerves | 500 mg, much improved | reference: white light | share of responses | 7.1% |
| C=Cc1c(C)c2cc3nc(c(CC(=O)O)c4[nH]c(cc5nc(cc1[nH]2)C(C)=C5CC)c(C)c4C(=O)O)[C@@H](CCC(=O)O)[C@@H]3C | flow cytometry | mouse, 4T1 tumour-bearing | dose not given, 1 h |  | CD4+ T cells | 1.86% and 1.53% and 1.48% |
| CC(C)NCC(O)c1ccc(O)c(O)c1 (centres unmarked) |  | ventricular cardiomyocytes, C57BL/6 mouse | dose not given, 0.08 s |  | sarcomere length | 1.72 µm |
| C[C@@H](O)CCOC(=O)C[C@@H](C)O | measured: His | human, plasma | 60 min, log2-transformed values |  | metabolite level | 6.3 ± 0.16 µmol/L |
| N#Cc1ccc2c(c1)[C@H]1CCCN(C(=O)c3ccc4[nH]cnc4c3)[C@H]1C2 | measured: Triglycerides | human | 20 mg once daily, day 28, adjusted mean |  | change from baseline | -6.2 mg/dL |
| Cc1n[nH]c2ccc(-c3cc(OC[C@@H](N)Cc4ccccc4)cnc3-c3ccoc3)cc12 | kinase binding, competitor, MIB/MS competition, measured: CMK1 | Candida albicans cell lysate | 10 µM | reference: DMSO | log2 fold change | -0.566 |
| CCCCCN1C[C@H](O)[C@@H](O)[C@H](O)[C@@H]1CO |  | Hexb-/- mouse, liver | 300 mg/kg/day, unit not given | reference: 30 mg/kg/day | decreased sphingolipid species | 30 |
| Cc1c(C)n(Cc2cccc(OC(C)(C)C(=O)O)c2)c2ccc(C(=O)N[C@@H](C)c3ccc(C(C)(C)C)cc3)cc12 |  | C57BL/6 mouse, diet-induced obesity, proximal tibia | dose not given |  | bone marrow fat volume | 0.004 ± 0.002 mm3 |
| C=CCn1c(=O)c2cnc(Nc3ccc(N4CCN(C)CC4)cc3)nc2n1-c1ccc2c(n1)[C@@](O)(CC)CC2 |  | ZR-75-1 xenograft, BALB/c nude mice | oral, 80 mg/kg, day 28, once daily days 0-21 and 25-27 |  | tumour growth inhibition | 22% |
| O=C([O-])CN1CCN(CC(=O)[O-])CCN([C@H](CO)[C@H](O)CO)CCN(CC(=O)[O-])CC1.[Gd+3] (racemic) |  | human plasma (lyophilized) | 37 °C, 3 T |  | longitudinal relaxivity (r1) | 5 ± 0.3 mM⁻¹ s⁻¹ |
| COc1ccc2c(c1)CN(C(=O)CCN1CCC(Cc3ccccc3)CC1)CC[S@@+]2[O-] |  | anaesthetised Beagle dogs | intravenous, 0.1 mg/kg, pacing cycle length 250 ms |  | ventricular ERP prolongation | 10.3% |
| c1ccc(-c2n[nH]cc2-c2ccnc3ccccc23)nc1 | kinase binding, competitor, MIB/MS competition, measured: CDC7 | Candida albicans cell lysate | 1 µM | reference: DMSO | log2 fold change | 1.22 |
| CCN1CCN(Cc2ccc(Nc3ncc(F)c(-c4cc(F)c5nc6n(c5c4)[C@H](C)CCC6)n3)nc2)CC1 | Phase Ia, RECIST v1.1 | patients with advanced solid tumours | dose not given, monotherapy, investigator-assessed |  | confirmed objective response rate | 4.2% |
| COc1ncnn2ccc(-c3cnc4nc(C)n(Cc5nnc([C@@H](C)F)o5)c4c3)c12 |  | relapsed or refractory AML or MDS patients | dose not given |  | CR plus CRi rate | 35.7% |
| CCc1c(C)nc(-c2ccc(Cl)s2)nc1Nc1ccc(CC(=O)O)cc1 |  | C57BL/6J mice, MCD diet | intraperitoneal, 0.3 mg/kg daily, final two weeks of 6-week diet |  | F4/80-positive liver cells | decreased |
| C[C@H](Oc1ccc(Br)cc1-c1ccon1)C(=O)O | first response latency | human, tibialis anterior muscle | 1200 mg, 15 Hz, single ascending dose |  | difference from placebo | 0.306% |
| COc1ccccc1[C@H](Cn1c(=O)n(C(C)(C)C(=O)O)c(=O)c2c(C)c(-c3ncco3)sc21)OC1CCOCC1 | [1-13C]acetate infusion, isotopomer analysis | overweight or obese healthy men, plasma VLDL-TG palmitate | oral, 50 mg single dose, 2 h post-dose, with: oral fructose |  | fractional hepatic DNL | 5.34 % new palmitate |
| COc1nnc2ccc(N3CCC(c4ccc(OCCN5CCN(C)C(=O)[C@H]5C)cc4)CC3)nn12 |  | human patients | 5 mg once daily, 1.5-fold above baseline |  | time above HEXIM1 threshold | 1.04 h |
| CC(C)[C@H](C(=O)Nc1ccc(C(=O)NO)cc1)c1ccccc1 | MRI volumetry | human, left parieto-occipital meningioma | dose not given, day 1512 post-treatment |  | tumour volume | 0.111 cm³ |
| Oc1ccc(Br)cc1C=NCCN1CCOCC1 | superoxide scavenging |  | 80 µM |  | inhibition | 12.2% |
| C[C@H]1O[C@@H](O[C@H]2CC[C@@]3(C)[C@@H](CC[C@]4(C)[C@@H]3C=C[C@]35OC[C@@]6(CCC(C)(C)C[C@H]63)[C@@H](O)C[C@]54C)[C@]2(C)CO)[C@H](O)[C@@H](O[C@@H]2O[C@H](CO)[C@@H](O)[C@H](O)[C@H]2O)[C@H]1O | Western blot, measured: Deptor | chronic-plus-binge ethanol-fed mice, liver | dose not given, dose level -L, unit not given | reference: β-actin | protein level | 0.35 and 0.883 and 0.399 |
| CC1(C)CCC(c2ccc(Cl)cc2)=C(CN2CCN(c3ccc(C(=O)NS(=O)(=O)c4ccc(N[C@H](CCN5CCOCC5)CSc5ccccc5)c(S(=O)(=O)C(F)(F)F)c4)cc3)CC2)C1 | cell kill, PI exclusion flow cytometry | unclassified leukaemia cells, human | 24 h |  | EC50 | 16 nM |
